# Measurements gathered from unrelated publications.
# Every numbered part comes from another study and shows a few of its results, in no order. Changes are numbered by the printed parent chain.
# UniProt P61075, sequence (whole entry, looked up): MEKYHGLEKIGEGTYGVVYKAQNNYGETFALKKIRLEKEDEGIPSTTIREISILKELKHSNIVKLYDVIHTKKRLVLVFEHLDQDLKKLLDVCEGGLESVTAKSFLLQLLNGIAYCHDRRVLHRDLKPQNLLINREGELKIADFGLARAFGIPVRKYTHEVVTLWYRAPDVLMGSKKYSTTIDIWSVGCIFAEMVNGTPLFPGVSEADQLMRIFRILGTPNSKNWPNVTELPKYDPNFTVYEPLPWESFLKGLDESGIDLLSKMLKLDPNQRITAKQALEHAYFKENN
# UniProt Q99640, sequence (whole entry, looked up): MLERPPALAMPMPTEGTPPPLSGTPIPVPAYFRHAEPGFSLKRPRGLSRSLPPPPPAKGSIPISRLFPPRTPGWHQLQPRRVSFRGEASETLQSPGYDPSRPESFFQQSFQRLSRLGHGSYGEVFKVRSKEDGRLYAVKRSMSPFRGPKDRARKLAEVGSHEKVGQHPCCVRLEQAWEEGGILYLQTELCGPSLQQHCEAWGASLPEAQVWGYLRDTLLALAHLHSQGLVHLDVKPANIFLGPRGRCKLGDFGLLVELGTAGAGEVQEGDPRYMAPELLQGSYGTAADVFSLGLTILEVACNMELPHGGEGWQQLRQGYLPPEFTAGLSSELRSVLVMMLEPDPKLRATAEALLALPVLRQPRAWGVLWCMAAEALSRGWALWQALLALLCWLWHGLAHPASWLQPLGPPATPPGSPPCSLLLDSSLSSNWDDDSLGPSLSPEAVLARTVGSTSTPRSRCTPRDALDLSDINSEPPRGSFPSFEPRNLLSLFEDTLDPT

# Block 1
# Target: Hepatocyte nuclear factor 3-alpha (Foxa1, Mus musculus, UniProt P35582, residues 1-468, full length assumed)
# Method: EMSA with sequencing
# Molecule type: double-stranded DNA, one strand shown
# Matrix: in vitro
# Tested at: 10 and 20 nM
# Notes: whole designed probe, mean of two concentrations, ends assumed
# Reference: negative control set to 0
# Reading: higher = stronger binding
# Constant ends, left off below: GTGAGCGGTGCCCATTGATGGGGAAC … TTTCACTGGGATCGTGGGGAC
# Residues (chain): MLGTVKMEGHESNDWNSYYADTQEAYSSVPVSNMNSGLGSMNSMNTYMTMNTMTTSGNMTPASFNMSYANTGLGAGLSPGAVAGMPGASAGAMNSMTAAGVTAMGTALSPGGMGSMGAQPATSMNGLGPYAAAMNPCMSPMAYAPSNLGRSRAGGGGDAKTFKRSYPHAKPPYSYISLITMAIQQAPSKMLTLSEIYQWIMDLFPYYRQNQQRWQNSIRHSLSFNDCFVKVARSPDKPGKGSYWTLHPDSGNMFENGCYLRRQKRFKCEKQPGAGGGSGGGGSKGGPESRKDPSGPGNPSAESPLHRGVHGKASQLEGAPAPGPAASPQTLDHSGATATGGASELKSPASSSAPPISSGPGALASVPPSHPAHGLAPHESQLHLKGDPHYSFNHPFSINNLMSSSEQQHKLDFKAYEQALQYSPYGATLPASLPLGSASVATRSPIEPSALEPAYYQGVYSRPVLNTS
Oligonucleotide,normalised bound fraction
AATTACAAGTTCTATGACCTTATTGTAAGGTGTCTCAAACTTTTTTGAATTGGGAGAGTACATTTAGAGTAACCAAACTGAGTCAGTGCAAAGTCATCTGAGCTGGGCAGATAGCCGAGCCAGGAGAAATCTCAACTGGATGGTGCCAGAACTGGTAGGGGAAGCCTCTAGTACTGCTACCAAATATATTGTG,-0.0501 ratio
ATCTTCCCCCTCTTCCTTGCCCCACCAGCTCACCTTCCCGGGTATCTGCAAATAAGTATTTATTTTCAAGCCGGCATTCGTTAACCCTCTTCTGGCGCAAACTGCACATTGGTCTGGATCTAACATGGTCCTTTGGCGACGCCAGGCTCCGGGAGAGCAAAGCACCGTGTCAGGGCCATGATCCGGGGTGGCC,0.144 ratio
ATTTGTAATTCTATTGGCAAATCCTTCTTTAGAAATTTTCCATGACAGACACGATGCTACCTTTGAAATTATGTGAACCATAGCAAATCAAAGTAAACAAATAATTCATCAACCAAAATATCAAAGTCCAACTGCCACCATTTAATTAGGCACATTTCATTAACTTTAGGAGCTCCTGGCTTAACTAAGCCAA,0.461 ratio
ATCTTCCCCCTCTTCCTTGCCCCACCAGCTCACCTTCCCGGGTTATTTGCAGATAGGAAAATAAATAAAGCCGGCATTCGTTAACCCTCTTCTGGCGCAAACTGCTGTTTGCTCTGGATGAATCATGGTCCTTTGGCGACGCCAGGCCGGGCGTAGACAAAGCACCGTGTCAGGGCCATGATCCGGGGTGGCC,0.344 ratio
AGTCCAAAAGACACAATAGGCACTGAGCAGAGGATGATGGCAATGGTAGAATGAATCATGAGGTTCATAACCAGGAGACTTAAAGCAAAAAAAATAATCTACCAAACAGCAATGGGTGAAGAGTTCCCTGCAAAGGCTAATCTATAAATAAGCACTGTGATCTTTCCTGGTCTGATAACAAATCTCATTATGA,-0.00484 ratio
TCTCCCCTGCAGGAGTTTGGACTAATCAGGTCACTACACCCTGACACAGCAGTCTCCAGTCTCTACCACTCATTGTTTGCAACATGAGCTAATGTCAACAGACCACAGAGAAGTTAGCAACAGGGAAGGGAAAACACTTTAATCTCAAGGTCATCCCCAGGGTTCAGCAGGACATATATCCTATATCGAATCA,0.369 ratio
TCTCTGCATTCCAAGCCGTTGCACCTGAACTCCCAACAATAACAGGGCGCTCTGAGACCTACCAGATGTACACAATGAATATCTTTATTTCCTAAATTATTTTTAGGTTTATGGGATTGTCCTGCTCCCTTTGAAGAGCAGGGATCATTATCCCCATTTTACAGATGGGGAAACAGAGACCTGGAGAAACATG,0.327 ratio
ATCTTTGCTGGGGTTGGGCCATAGCTTGATGGGTATTTGTTGAATGACTAATAAATGACTTATAGGCTAACAGCCTCCTTTGAAGTAGGCTGAGCAATCTAACCATTAAGTGGAACATGGTGTCTAGGTTACACAGCTCACTCATCTGCTAATCACTGGGGCACACTGCTGGTTATTATTACCTGAGACCCTG,0.117 ratio

# Block 2
# Target: CRIPT, C-terminal peptide
# Method: DHFR complementation, deep sequencing
# Matrix: yeast
# Notes: single substitutions, model-inferred values
# Reference: wild type
# Reading: higher = weaker binding
# Starting sequence: ERBIN, PDZ domain 1 (human); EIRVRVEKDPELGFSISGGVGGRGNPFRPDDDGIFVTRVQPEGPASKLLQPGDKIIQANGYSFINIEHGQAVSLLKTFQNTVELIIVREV; partner TKNYKQTSV
Change,binding free energy change [kcal/mol]
K54E,0.0714
V87M,-0.0741
N59F,0.506
Y61F,0.0382
D30I,0.422
D30R,0.232
G69T,0.0831
R28G,0.634

# Block 3
# Target: Phosphate system positive regulatory protein PHO4, full length, GST-tagged (PHO4, Saccharomyces cerevisiae, UniProt P07270, residues 1-312)
# Method: competition protein-binding microarray
# Molecule type: double-stranded DNA, one strand shown
# Matrix: in vitro
# Tested at: 2 µM
# Notes: whole 60-bp probe, lowest competitor level
# Together with: Cbf1 competitor, 0.05 µM
# Reading: higher = stronger binding
# Constant ends, left off below: … GTCTTGATTCGCTTGACGCTGCTG
# Target sequence (chain): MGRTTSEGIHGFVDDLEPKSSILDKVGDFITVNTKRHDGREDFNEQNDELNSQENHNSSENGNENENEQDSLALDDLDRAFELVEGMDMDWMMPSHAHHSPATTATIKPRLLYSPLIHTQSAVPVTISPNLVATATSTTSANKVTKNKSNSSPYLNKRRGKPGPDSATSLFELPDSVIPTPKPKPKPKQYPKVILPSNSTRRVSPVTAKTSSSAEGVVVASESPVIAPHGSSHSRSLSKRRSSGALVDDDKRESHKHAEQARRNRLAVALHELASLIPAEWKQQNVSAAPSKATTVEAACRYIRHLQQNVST
Oligonucleotide,fluorescence intensity
AAAGCGGTAATTTGTCACGGGACTTCACATATCTAT,6870 a.u.
ATAACCACTAAATTCAAAAACACTTATTTTCAATAT,3350 a.u.
CCGCTAACAAATCCACACGTCGCACTGAAAGTGATA,5670 a.u.
CGGGGTTAAGTTTGTTCGGTGGGTGGCTTGCAGCAG,4140 a.u.
CGGGGTTAAGTTTGTGTTGTGGGTGGCTTGCAGCAG,4580 a.u.
TGTTCTCGACGACAACTCGTGTCGGTTCCATGCTAT,8240 a.u.
CGCCGACTCTGCGCATTCGTGGCCGCTGCTCACTCC,5150 a.u.
AAGTACGTCCTCTTGGCCGTGATGGCTGTTGTATTT,3590 a.u.

# Block 4
# Target: CCNA2, cyclin fold, Cln2 fusion (human)
# Method: yeast growth competition, sequencing
# Matrix: yeast
# Notes: strong parent motif
# Reference: not given
# Reading: higher = stronger binding
# Starting sequence: viral docking peptide; KGVKRKLFAEDSS
Change,normalised enrichment score
KGVKRRLFAEDSS [K6R],6.94
KGVKRSLFAEDSS [K6S],5.28
KGVKRPLFAEDSS [K6P],2.86
KGVKRKLFDEDSS [A9D],6.31
KGVLRKLFAEDSS [K4L],1.47
KGTKRKLFAEDSS [V3T],4.95
KGGKRKLFAEDSS [V3G],2.24
KGVKRKLFAEDAS [S12A],6.43
KGVKRKEFAEDSS [L7E],0.551
KGVKRKLFAEDTS [S12T],6.22
KGVKFKLFAEDSS [R5F],1.25
KWVKRKLFAEDSS [G2W],5.54
KGVQRKLFAEDSS [K4Q],5.32
KGVKRKLFAPDSS [E10P],6.26
KGQKRKLFAEDSS [V3Q],0.926
KGVKRKLFAENSS [D11N],6.33
KGVKRCLFAEDSS [K6C],6.29
KGVKRKLFKEDSS [A9K],5.97
KGVKRKLFAEASS [D11A],6.44
KGVKRKLFAEDIS [S12I],6.62
KGVKAKAFAEDSS [R5A L7A],0.229
KGVKRKLAAEDSS [F8A],0.874
KGMKRKLFAEDSS [V3M],2.35
KGVKMKLFAEDSS [R5M],2.22
KGVKRKLFAEISS [D11I],5.87

# Further values, each from its own experiment
SMILES,target,assay,test system,setting,quantity,value
Nc1c(C(=O)NCc2ccc(C(=O)NCCCC3CCCCC3)cc2)cnn1-c1ccccc1,"Cyclin-dependent kinase 2 homolog (CRK2, Plasmodium falciparum, UniProt P61075)","cell-free assay, competition with immobilised ligand",,0.1 µM,remaining binding,100%
C[C@@H]1C[C@@H]([C@H](O)CC2CC(=O)NC(=O)C2)C(=O)[C@@H](C)C1,"Membrane-associated tyrosine- and threonine-specific cdc2-inhibitory kinase (PKMYT1, Homo sapiens, UniProt Q99640)",immunoblotting,HCC1569,"50 µg/mL, 48 h",remaining protein level,29.2%

# Some of these lines once more (block 2):
Change,binding free energy change [kcal/mol]
V87M,-0.0741
N59F,0.506
Y61F,0.0382
D30I,0.422
D30R,0.232
G69T,0.0831
